Experimental data from different studies.
Lines come from different studies, so protocols differ. Values joined by “and” are separate records of one study, mostly repeats; a detail may differ. Numbers after ± are the reported error.
EPHX2: Bifunctional epoxide hydrolase 2 (EPHX2, Homo sapiens, UniProt P34913)
Chain of UniProt P34913 (whole entry, looked up): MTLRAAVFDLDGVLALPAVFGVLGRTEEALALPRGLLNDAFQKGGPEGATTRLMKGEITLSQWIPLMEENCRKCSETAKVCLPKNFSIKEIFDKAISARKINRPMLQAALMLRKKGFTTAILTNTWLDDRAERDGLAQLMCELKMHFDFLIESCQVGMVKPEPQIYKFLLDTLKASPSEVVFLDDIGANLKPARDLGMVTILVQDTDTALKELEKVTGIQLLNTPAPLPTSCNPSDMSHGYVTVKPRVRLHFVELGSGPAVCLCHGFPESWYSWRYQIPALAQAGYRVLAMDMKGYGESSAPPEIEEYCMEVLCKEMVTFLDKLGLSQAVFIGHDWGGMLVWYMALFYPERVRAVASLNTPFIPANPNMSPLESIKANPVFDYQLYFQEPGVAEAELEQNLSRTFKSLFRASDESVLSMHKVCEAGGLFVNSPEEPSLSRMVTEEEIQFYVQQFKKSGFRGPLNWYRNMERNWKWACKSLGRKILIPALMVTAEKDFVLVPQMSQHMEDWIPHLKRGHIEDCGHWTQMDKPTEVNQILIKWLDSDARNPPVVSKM
CBL SH2 domain: E3 ubiquitin-protein ligase CBL, SH2 domain (CBL, Homo sapiens, UniProt P22681)
Chain of UniProt Q8WTS6 (whole entry, looked up): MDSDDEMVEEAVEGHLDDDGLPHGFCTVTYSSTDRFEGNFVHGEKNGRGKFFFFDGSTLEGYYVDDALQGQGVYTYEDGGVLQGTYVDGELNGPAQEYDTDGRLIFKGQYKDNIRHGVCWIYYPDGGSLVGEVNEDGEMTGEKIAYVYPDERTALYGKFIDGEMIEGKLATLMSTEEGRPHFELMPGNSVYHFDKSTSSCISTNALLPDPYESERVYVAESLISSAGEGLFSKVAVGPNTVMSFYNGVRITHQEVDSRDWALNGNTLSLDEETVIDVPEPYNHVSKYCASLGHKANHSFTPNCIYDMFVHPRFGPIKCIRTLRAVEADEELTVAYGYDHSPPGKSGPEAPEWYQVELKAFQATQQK
Chain of UniProt O00444 (whole entry, looked up): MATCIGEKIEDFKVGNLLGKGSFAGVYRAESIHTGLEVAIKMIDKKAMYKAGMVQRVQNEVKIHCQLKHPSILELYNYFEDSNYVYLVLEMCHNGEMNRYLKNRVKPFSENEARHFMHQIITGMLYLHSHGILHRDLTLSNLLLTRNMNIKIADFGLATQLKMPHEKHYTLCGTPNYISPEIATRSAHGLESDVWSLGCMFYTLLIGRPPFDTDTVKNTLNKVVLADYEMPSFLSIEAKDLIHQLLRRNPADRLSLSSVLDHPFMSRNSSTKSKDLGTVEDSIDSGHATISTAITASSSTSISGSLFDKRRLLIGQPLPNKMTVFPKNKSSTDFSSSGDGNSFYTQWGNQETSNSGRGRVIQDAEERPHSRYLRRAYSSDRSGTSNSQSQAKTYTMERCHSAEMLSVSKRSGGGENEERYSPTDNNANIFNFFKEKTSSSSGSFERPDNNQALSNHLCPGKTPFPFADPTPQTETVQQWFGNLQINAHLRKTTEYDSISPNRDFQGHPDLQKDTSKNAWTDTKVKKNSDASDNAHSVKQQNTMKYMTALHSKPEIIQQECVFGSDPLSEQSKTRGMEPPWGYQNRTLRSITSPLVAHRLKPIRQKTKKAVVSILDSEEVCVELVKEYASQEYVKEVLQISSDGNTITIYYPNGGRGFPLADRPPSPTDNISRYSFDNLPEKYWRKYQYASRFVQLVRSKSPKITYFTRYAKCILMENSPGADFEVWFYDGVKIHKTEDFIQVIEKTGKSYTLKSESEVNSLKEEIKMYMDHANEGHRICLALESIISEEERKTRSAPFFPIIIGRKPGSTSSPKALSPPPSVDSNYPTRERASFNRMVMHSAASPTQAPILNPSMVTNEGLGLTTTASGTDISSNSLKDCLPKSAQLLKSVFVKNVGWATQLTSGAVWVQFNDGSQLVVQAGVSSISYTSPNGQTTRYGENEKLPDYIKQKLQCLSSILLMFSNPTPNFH
Chain of UniProt P41146 (whole entry, looked up): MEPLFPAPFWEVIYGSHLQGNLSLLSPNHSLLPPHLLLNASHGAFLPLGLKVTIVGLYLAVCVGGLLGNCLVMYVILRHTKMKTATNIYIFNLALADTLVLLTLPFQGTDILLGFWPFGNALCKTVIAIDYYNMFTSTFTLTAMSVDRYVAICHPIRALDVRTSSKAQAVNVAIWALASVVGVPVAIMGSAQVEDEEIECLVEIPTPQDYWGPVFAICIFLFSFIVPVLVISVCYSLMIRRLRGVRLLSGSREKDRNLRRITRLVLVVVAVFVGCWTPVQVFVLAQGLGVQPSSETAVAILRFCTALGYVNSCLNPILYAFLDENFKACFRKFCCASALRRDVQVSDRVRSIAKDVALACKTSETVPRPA
Chain of UniProt O42275 (whole entry, looked up): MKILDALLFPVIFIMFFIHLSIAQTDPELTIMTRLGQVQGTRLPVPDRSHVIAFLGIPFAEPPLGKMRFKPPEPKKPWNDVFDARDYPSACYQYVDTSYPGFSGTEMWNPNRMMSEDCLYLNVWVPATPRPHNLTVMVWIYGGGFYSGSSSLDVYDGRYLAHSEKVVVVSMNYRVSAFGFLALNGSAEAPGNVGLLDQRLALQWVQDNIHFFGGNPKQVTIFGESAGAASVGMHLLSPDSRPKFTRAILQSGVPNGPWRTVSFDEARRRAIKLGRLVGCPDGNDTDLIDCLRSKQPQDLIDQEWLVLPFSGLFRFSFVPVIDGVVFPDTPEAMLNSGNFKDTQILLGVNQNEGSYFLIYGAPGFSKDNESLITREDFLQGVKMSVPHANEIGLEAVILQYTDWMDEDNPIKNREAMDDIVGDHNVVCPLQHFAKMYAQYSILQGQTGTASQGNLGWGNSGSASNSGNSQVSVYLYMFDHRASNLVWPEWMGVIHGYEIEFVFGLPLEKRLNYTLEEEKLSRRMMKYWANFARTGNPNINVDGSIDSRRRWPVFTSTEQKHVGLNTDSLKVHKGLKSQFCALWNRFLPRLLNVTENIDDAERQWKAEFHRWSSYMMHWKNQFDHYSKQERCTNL
Chain of UniProt P35372 (whole entry, looked up): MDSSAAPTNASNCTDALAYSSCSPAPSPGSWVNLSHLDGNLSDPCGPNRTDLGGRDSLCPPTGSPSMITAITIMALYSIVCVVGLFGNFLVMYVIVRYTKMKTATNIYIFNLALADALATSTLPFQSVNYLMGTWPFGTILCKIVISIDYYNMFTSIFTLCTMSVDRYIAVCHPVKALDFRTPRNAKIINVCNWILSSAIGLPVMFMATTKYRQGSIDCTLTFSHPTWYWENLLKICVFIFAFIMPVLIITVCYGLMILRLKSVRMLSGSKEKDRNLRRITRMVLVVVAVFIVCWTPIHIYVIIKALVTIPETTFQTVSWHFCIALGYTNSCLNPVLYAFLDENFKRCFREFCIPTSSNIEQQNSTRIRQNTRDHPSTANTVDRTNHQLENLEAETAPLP

Molecule | tested on | assay | system | setting | measurement | value
O=C(Nc1ccc(F)c(Cl)c1)NC1CCN(c2c(NS(=O)(=O)Cc3ccccc3)c(=O)c2=O)CC1 | EPHX2 |  |  |  | IC50 | 0.018 ± 0.002 µM
Cc1ccc(CN2CCC(C(=O)Nc3ccc(-c4cnc5ccccc5c4)cc3)CC2)cc1 | EPHX2 |  |  |  | IC50 | 0.0794 µM
Cc1ccccc1S(=O)(=O)Nc1c(N2CCC(NC(=O)Nc3ccc(C(F)(F)F)cc3)CC2)c(=O)c1=O | EPHX2 |  |  |  | IC50 | 0.0009 ± 0.0001 µM
nociceptin | Nociceptin receptor (OPRL1, Homo sapiens, UniProt P41146) | cAMP level, agonist |  | human receptor, cells | EC50 | 0.00019 ± 4e-05 µM
CC(C)C[C@H](NC(=O)[C@@H]1CCCN1)C(=O)N[C@@H](Cc1c[nH]cn1)C(=O)N[C@@H](CO)C(=O)N[C@H](C(=O)N[C@@H](C)C(=O)O)[C@@H](C)OP(=O)(O)O | Serine/threonine-protein kinase PLK4, PB3 domain (PLK4, Homo sapiens, UniProt O00444) | binding, microscale thermophoresis |  | pH 8.0 | Kd | no binding
CSCC[C@H](NC(=O)[C@@H](NC(=O)[C@H](CCC(=O)O)NC(=O)[C@H](Cc1ccc(OP(=O)(O)O)cc1)NC(=O)[C@H](CC(C)C)NC(=O)[C@@H]1CCCN1C(=O)[C@H](CC(=O)O)NC(=O)[C@@H]1CCCN1C(=O)[C@H](CS)NC(=O)[C@H](Cc1ccc(O)cc1)NC(=O)[C@H](CCC(=O)O)NC(=O)[C@@H]1CCCN1C(=O)[C@H](CCC(N)=O)NC(=O)c1ccc2c(c1)C(=O)OC21c2ccc(N(C)C)cc2Oc2cc(N(C)C)ccc21)C(C)C)C(=O)N[C@@H](CC(C)C)C(=O)N[C@@H](CCCCN)C(=O)N[C@@H](CS)C(=O)N[C@@H](Cc1c[nH]c2ccccc12)C(=O)N[C@@H](CC(=O)O)C(=O)O | CBL SH2 domain |  |  | human protein | Kd | 0.148 µM
O=C(Nc1ccc(-c2cnc3ccccc3c2)cc1)C1CCN(CC2CCCCC2)CC1 | EPHX2 |  |  |  | IC50 | 0.684 µM
O=C(Nc1ccc(OC(F)(F)F)cc1)NC1CCN(c2c(NS(=O)(=O)Cc3ccccc3)c(=O)c2=O)CC1 | EPHX2 |  |  |  | IC50 | 0.0048 ± 0.0002 µM
Cc1ccccc1CN1CCC(C(=O)Nc2ccc(-c3cnc4ccccc4c3)cc2)CC1 | Acetylcholinesterase (ache, Electrophorus electricus, UniProt O42275) |  |  |  | IC50 | 7.97 µM
C(#Cc1c[nH]c2nccc(-c3ccncc3)c12)c1cccnc1 |  |  | mouse C57BL/6, male | oral, 20 mg/kg | Cmax | 1070 ± 663 ng/mL
CC[C@H](C)[C@H](NC(=O)c1ccc2c(c1)C(=O)OC21c2ccc(N(C)C)cc2Oc2cc(N(C)C)ccc21)C(=O)N[C@@H](CCSC)C(=O)N[C@@H](CC(C)C)C(=O)N[C@@H](Cc1c[nH]c2ccccc12)C(=O)N[C@@H](CCC(N)=O)C(=O)N[C@@H](CCCCN)C(=O)N[C@@H](CCCCN)C(=O)N1CCC[C@H]1C(=O)N[C@@H](CCCNC(=N)N)C(=O)N[C@@H](Cc1ccc(OP(=O)(O)O)cc1)C(=O)N[C@@H](CCC(=O)O)C(=O)N[C@H](C(=O)N[C@@H](CCCNC(=N)N)C(=O)N[C@@H](Cc1c[nH]c2ccccc12)C(=O)N[C@@H](CCCCN)C(=O)N[C@H](C(=O)N[C@H](C(=O)N[C@@H](CC(=O)O)C(=O)O)[C@@H](C)CC)C(C)C)[C@@H](C)CC | CBL SH2 domain |  |  | human protein | Kd | 1.98 µM
COc1ccc(NC(=O)NC2CCN(c3c(NS(=O)(=O)c4ccc(C)cc4)c(=O)c3=O)CC2)cc1 | EPHX2 |  |  |  | IC50 | 0.281 ± 0.0354 µM
Cc1cc(OCc2nnc(SC3CCCC3)n2-c2cccnc2)ccc1-c1ccc(S(C)(=O)=O)cc1 | TK-10 |  |  |  | GI50 | 1.86 µM
O=C(O)CCCC[C@@H]1SC[C@@H]2NC(=O)N[C@@H]21 | Histone-lysine N-methyltransferase SETD7 (SETD7, Homo sapiens, UniProt Q8WTS6) | inhibitor |  | apparent, bead displacement artifact | IC50 | 1.3 µM and 1.3 to 1.7 µM
N#Cc1ccccc1 | nitrilase (Rhodococcus rhodochrous, UniProt A4LA85, Y142F) | ammonia release |  | pH 7.5, 25 °C, 10% methanol | Km | 3.45 ± 0.19 mM
CN1CC[C@]23c4c5ccc(O)c4O[C@H]2[C@@H](OS(=O)(=O)O)C=C[C@H]3[C@H]1C5 | Mu-type opioid receptor (OPRM1, Homo sapiens, UniProt P35372) |  |  |  | Ki | 0.00098 µM
O=c1[nH]cnc2c(CN3C[C@H](CO)[C@@H](O)C3)c[nH]c12 | purine nucleoside phosphorylase (Kluyveromyces lactis, UniProt Q6CSZ6) |  |  |  | Ki | 0.000155 ± 5.8e-06 µM
O=C(Nc1ccc(-c2ccc3ccccc3n2)cc1)C1CCN(Cc2ccccc2F)CC1 | EPHX2 |  |  |  | IC50 | 0.287 µM

A few entries again:
Molecule | tested on | assay | system | setting | measurement | value
CSCC[C@H](NC(=O)[C@@H](NC(=O)[C@H](CCC(=O)O)NC(=O)[C@H](Cc1ccc(OP(=O)(O)O)cc1)NC(=O)[C@H](CC(C)C)NC(=O)[C@@H]1CCCN1C(=O)[C@H](CC(=O)O)NC(=O)[C@@H]1CCCN1C(=O)[C@H](CS)NC(=O)[C@H](Cc1ccc(O)cc1)NC(=O)[C@H](CCC(=O)O)NC(=O)[C@@H]1CCCN1C(=O)[C@H](CCC(N)=O)NC(=O)c1ccc2c(c1)C(=O)OC21c2ccc(N(C)C)cc2Oc2cc(N(C)C)ccc21)C(C)C)C(=O)N[C@@H](CC(C)C)C(=O)N[C@@H](CCCCN)C(=O)N[C@@H](CS)C(=O)N[C@@H](Cc1c[nH]c2ccccc12)C(=O)N[C@@H](CC(=O)O)C(=O)O | CBL SH2 domain |  |  | human protein | Kd | 0.148 µM
